Assay results pooled from the literature.
Each numbered part is a random draw from the data of one study; scales do not carry over between parts.
Sequence of UniProt Q9UQM7 (whole entry, looked up): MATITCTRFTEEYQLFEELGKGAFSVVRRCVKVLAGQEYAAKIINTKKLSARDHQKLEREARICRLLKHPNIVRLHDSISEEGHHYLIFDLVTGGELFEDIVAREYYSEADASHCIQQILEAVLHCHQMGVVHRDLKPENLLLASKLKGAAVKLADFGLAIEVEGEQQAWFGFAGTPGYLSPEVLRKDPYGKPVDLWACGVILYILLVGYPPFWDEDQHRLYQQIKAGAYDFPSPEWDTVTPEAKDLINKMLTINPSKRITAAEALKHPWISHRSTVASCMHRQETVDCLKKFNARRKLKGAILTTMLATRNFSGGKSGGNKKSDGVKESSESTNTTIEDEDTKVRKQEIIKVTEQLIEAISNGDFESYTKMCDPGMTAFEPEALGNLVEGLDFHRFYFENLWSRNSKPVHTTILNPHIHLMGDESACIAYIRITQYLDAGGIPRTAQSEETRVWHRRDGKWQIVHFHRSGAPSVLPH
Sequence of UniProt Q8NG66 (whole entry, looked up): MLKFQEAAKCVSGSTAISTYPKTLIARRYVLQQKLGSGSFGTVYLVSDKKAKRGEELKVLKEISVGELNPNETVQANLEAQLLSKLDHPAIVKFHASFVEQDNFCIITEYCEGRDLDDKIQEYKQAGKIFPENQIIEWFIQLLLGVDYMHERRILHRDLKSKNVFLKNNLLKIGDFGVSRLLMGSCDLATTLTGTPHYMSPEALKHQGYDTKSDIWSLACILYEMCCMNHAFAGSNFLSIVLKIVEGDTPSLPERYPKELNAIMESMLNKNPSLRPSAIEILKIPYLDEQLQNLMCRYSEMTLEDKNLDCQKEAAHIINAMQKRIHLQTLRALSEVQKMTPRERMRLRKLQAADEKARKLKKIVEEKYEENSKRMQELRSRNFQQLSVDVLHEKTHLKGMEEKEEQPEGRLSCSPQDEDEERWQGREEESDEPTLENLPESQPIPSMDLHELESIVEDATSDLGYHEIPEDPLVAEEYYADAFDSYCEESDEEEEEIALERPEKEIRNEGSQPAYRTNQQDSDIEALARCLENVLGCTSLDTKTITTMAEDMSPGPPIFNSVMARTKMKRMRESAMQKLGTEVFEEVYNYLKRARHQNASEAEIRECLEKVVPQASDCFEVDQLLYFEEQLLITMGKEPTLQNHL
Sequence of UniProt Q9NRH2 (whole entry, looked up): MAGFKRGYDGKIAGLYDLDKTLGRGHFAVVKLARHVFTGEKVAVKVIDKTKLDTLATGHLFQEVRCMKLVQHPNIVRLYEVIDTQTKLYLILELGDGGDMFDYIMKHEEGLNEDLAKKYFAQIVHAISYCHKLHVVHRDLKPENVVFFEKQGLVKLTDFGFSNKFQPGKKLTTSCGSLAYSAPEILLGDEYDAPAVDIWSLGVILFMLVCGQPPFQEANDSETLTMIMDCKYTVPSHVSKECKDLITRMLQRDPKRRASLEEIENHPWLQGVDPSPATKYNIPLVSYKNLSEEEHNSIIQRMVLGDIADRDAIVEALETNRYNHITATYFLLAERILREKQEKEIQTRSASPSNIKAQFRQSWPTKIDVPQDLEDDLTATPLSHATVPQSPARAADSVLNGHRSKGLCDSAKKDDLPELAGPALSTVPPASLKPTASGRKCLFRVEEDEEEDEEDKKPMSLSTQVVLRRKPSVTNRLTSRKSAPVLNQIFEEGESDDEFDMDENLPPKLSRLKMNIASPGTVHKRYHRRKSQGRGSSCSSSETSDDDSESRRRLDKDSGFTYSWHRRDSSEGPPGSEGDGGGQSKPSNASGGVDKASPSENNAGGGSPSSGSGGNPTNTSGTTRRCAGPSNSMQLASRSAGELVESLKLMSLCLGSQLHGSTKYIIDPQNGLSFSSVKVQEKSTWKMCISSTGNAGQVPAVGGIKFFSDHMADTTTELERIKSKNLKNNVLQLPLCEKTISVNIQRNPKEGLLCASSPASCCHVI
Sequence of UniProt P42338 (whole entry, looked up): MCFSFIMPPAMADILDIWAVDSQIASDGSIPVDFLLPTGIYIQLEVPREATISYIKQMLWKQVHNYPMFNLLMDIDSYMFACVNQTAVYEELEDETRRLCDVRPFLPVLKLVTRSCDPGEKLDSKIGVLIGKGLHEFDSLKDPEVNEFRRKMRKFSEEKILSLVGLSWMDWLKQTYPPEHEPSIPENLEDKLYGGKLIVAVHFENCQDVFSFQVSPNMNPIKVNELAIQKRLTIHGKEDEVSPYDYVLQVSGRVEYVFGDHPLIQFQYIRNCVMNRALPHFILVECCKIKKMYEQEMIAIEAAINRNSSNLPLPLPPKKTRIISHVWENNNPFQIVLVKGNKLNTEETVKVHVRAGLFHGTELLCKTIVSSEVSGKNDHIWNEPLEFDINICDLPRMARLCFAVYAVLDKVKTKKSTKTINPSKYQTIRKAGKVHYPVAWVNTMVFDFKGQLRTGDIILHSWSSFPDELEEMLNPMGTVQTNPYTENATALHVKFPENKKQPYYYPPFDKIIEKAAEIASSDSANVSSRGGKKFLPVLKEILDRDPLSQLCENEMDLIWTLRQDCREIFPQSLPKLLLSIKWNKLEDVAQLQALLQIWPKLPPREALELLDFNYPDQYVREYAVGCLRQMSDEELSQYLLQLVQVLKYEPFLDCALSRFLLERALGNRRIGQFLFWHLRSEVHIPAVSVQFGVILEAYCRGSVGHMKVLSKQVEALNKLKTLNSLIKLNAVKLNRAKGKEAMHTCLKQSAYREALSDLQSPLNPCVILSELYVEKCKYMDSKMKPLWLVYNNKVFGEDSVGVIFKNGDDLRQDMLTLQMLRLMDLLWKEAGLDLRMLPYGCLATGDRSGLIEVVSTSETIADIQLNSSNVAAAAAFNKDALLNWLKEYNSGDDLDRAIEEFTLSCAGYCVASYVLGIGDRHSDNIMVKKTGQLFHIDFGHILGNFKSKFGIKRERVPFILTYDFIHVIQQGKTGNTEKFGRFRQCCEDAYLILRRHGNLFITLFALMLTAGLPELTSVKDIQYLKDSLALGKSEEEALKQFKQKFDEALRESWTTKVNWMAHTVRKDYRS
Sequence of UniProt Q13188 (whole entry, looked up): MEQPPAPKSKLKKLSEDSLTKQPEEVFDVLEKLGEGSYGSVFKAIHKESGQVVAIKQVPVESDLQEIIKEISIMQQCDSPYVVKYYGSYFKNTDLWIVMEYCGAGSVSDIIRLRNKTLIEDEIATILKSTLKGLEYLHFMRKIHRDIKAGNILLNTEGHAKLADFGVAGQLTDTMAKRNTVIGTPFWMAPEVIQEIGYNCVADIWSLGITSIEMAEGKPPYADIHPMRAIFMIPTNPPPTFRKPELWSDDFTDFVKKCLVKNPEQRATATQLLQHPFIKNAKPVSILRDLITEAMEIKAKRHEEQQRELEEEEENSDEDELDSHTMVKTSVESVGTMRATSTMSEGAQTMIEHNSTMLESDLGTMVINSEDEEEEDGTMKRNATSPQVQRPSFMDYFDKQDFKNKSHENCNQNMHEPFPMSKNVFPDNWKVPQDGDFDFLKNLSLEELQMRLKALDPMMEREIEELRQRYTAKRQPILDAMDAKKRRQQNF

Set 1
Target: ALK tyrosine kinase receptor (ALK, Homo sapiens, UniProt Q9UM73)
Sequence of UniProt Q9UM73 (whole entry, looked up): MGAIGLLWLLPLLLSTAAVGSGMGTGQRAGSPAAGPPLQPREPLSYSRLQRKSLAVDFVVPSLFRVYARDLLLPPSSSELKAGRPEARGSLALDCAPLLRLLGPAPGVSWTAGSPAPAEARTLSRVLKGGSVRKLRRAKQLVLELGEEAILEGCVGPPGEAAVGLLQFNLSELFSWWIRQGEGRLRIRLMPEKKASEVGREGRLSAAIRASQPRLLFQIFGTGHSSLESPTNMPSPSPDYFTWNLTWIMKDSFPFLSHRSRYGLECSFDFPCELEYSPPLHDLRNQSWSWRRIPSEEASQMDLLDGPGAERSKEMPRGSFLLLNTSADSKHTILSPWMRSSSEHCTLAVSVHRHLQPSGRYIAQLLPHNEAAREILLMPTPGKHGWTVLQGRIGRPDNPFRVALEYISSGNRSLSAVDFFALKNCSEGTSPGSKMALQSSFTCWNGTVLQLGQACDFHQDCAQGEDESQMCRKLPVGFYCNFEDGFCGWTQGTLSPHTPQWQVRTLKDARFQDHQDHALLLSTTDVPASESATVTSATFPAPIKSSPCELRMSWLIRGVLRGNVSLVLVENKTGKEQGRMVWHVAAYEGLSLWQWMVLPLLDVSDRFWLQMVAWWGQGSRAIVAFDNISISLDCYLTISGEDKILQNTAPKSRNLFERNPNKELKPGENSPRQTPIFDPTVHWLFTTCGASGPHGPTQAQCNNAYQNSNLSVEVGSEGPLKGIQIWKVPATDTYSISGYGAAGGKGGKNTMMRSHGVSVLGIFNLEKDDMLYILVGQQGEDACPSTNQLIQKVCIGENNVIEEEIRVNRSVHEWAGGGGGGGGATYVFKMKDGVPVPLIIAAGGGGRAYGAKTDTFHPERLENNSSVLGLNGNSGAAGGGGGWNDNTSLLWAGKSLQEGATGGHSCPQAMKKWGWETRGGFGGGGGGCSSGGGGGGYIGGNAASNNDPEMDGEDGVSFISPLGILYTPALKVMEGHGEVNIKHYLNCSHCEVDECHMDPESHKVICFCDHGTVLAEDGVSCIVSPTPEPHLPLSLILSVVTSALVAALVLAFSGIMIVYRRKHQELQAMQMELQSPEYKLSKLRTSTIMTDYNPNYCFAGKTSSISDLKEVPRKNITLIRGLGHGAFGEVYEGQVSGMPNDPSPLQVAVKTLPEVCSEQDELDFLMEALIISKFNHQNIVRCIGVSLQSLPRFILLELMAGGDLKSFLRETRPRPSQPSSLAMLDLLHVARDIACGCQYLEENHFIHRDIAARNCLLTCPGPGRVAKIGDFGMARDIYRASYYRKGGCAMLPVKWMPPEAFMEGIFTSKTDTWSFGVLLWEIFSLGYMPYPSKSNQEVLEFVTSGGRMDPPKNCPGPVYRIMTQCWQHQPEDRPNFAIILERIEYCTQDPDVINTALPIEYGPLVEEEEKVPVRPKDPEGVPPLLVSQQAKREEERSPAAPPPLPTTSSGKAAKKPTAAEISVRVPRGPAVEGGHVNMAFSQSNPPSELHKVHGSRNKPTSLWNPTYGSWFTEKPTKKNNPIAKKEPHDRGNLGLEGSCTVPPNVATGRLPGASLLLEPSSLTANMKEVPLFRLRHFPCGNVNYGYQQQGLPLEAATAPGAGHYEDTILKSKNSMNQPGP
Effect on: enzyme activity
Mode: inhibitor
Tested at: 0.5 µM
Reference: control
Endpoint: remaining activity
N#Cc1c(NC(=O)c2cccc3ccccc23)sc2c1CCCC2: 96.4%
CN(C)C[C@H]1CCn2c(c(C3=C(c4cn(C)c5ccccc45)C(=O)NC3=O)c3ccccc32)C1: 99.6%
O=C(NC(NC(=S)Nc1ccc(F)c([N+](=O)[O-])c1)C(Cl)(Cl)Cl)C(c1ccccc1)c1ccccc1 (stereo not shown): 110%
CN([C@@H](Cc1ccc(OS(=O)(=O)c2cccc3cnccc23)cc1)C(=O)N1CCN(c2ccccc2)CC1)S(=O)(=O)c1cccc2cnccc12: 96.5%
Nc1cccc(-c2cc3c(Oc4cccc(O)c4)ncnc3[nH]2)c1: 80.9%
CCN(CC)C(=O)c1ccc(Nc2nc(OCC3CCCCC3)c3[nH]cnc3n2)cc1: 74.9%
O=C1c2ccccc2-c2n[nH]c3cccc1c23: 91.7%
O=C(Nc1cccc(Nc2nccc(Nc3cccc(C(F)(F)F)c3)n2)c1)C1CC1: 99.8%
c1ccc(-c2cnc(Nc3ccc(OCCN4CCCC4)cc3)s2)cc1: 97%
c1ccc(-c2[nH]ncc2-c2ccnc3ccccc23)nc1: 111%
COc1cc2ncnc(Nc3ccc(O)c(Br)c3)c2cc1OC: 12.5%
CCN(CC)CCNC(=O)c1c(C)[nH]c(/C=C2\C(=O)Nc3ccc(Cl)cc32)c1C: 3.45%
CCOc1nc(NC(=O)Cc2cc(OC)ccc2OC)cc(N)c1C#N: 92.9%
Cc1nc2cc3nc(-c4cccs4)cnc3cc2n1C: 99.8%
N#C/C(=C\c1ccc(O)c(O)c1)C(=O)NCc1ccccc1: 105%
Ic1cccc(CSc2nnc(-c3ccncc3)o2)c1: 101%
Cc1cc2ncc(-c3ccccc3)nc2cc1C: 98%
C[C@@H]1CCN(C(=O)CC#N)C[C@@H]1N(C)c1ncnc2[nH]ccc12: 107%
COc1cc2ncnc(Nc3cccc(Cl)c3)c2cc1OC: 91.5%
O=C1C(Cl)=C(N2C(=O)CCC2=O)C(=O)c2ccccc21: 88.5%
O=c1cc(-c2cccc3c2Sc2ccccc2S3)oc(N2CCOCC2)c1: 96.2%
Cn1nc2c3c(cccc31)C(=O)c1ccccc1-2: 87.4%
COc1cc2c(cc1OC)-c1[nH]nc(Nc3cccc(F)c3)c1C2: 103%
Cc1cn(-c2cc(NC(=O)c3ccc(C)c(Nc4nccc(-c5cccnc5)n4)c3)cc(C(F)(F)F)c2)cn1: 103%

Set 2
Compound: Cc1nc(Nc2ncc(C(=O)Nc3c(C)cccc3Cl)s2)cc(N2CCN(CCO)CC2)n1
Mode: inhibitor
Endpoint: inhibition
MAPK1 (Homo sapiens, UniProt P28482); 10 µM: < 50%
CSNK1D (Homo sapiens, UniProt P48730); 1 µM: < 50%
MAP4K1 (Homo sapiens, UniProt Q92918); 10 µM: 96%
PLK1 (Homo sapiens, UniProt P53350); 10 µM: < 50%
ERBB4 (Homo sapiens, UniProt Q15303); 10 µM: 100%
SLK (Homo sapiens, UniProt Q9H2G2); 10 µM: 97%
TEK (Homo sapiens, UniProt Q02763); 1 µM: < 50%
Tyrosine-protein kinase JAK1, JH1 kinase domain (JAK1, Homo sapiens, UniProt P23458); 10 µM: < 50%
PRKD1 (Homo sapiens, UniProt Q15139); 10 µM: < 50%
PIK3CB (Homo sapiens, UniProt P42338); 10 µM: < 50%
JAK3 (Homo sapiens, UniProt P52333); 10 µM: < 50%
NEK1 (Homo sapiens, UniProt Q96PY6); 10 µM: < 50%

Set 3
SMILES: Cc1nc(C2CCN(C(=O)c3ccc(OC(F)(F)F)cc3N)CC2)c2ncc(N3CCN(C)CC3)cc2n1
Effect on: cell-free assay
Method: competition with immobilised ligand
Tested at: 1 µM
Endpoint: remaining binding
Tyrosine-protein kinase ABL1, phosphorylated (ABL1, Homo sapiens, UniProt P00519, Q252H): 100%
CDKL1 (Homo sapiens, UniProt Q00532): 89%
NEK11 (Homo sapiens, UniProt Q8NG66): 100%
KIT (Homo sapiens, UniProt P10721, D816V): 100%
SNRK (Homo sapiens, UniProt Q9NRH2): 78%
ERBB3 (Homo sapiens, UniProt P21860): 88%
CAMK2A (Homo sapiens, UniProt Q9UQM7): 93%
PRKCD (Homo sapiens, UniProt Q05655): 100%
NEK10 (Homo sapiens, UniProt Q6ZWH5): 100%
STK3 (Homo sapiens, UniProt Q13188): 79%
EGFR (Homo sapiens, UniProt P00533, del752-759): 49%
RIPK1 (Homo sapiens, UniProt Q13546): 98%
MAP2K7 (Homo sapiens, UniProt O14733): 86%

Set 4
Target: Calcium/calmodulin-dependent protein kinase type II subunit alpha (CAMK2A, Homo sapiens, UniProt Q9UQM7)
Effect on: enzyme activity
Mode: inhibitor
Tested at: 10 µM
Endpoint: inhibition
Oc1ccc(CC2NCCc3cc(O)c(O)cc32)cc1 (stereo not shown): 25%
COc1ccc(-c2cc(=O)c3c(O)cc(O[C@@H]4O[C@H](CO[C@@H]5O[C@@H](C)[C@H](O)[C@@H](O)[C@H]5O)[C@@H](O)[C@H](O)[C@H]4O)cc3o2)cc1: -5%
C[C@H]1[C@H](C)CC[C@]2(C(=O)O[C@@H]3O[C@H](CO[C@@H]4O[C@H](CO)[C@@H](O[C@@H]5O[C@@H](C)[C@H](O)[C@@H](O)[C@H]5O)[C@H](O)[C@H]4O)[C@@H](O)[C@H](O)[C@H]3O)CC[C@]3(C)C(=CC[C@@H]4[C@@]5(C)C[C@@H](O)[C@H](O)[C@@](C)(CO)[C@@H]5CC[C@]43C)[C@H]12: -12%
CO/N=C(\C(=O)N[C@@H]1C(=O)N2C(C(=O)O)=C(Cn3ccc(=N)n3CCO)CS[C@H]12)c1csc(N)n1: -15%
O=C(OC1O[C@@H]2COC(=O)c3cc(O)c(O)c(O)c3-c3c(cc(O)c(O)c3O)C(=O)O[C@H]2[C@H](OC(=O)c2cc(O)c(O)c(O)c2)[C@H]1OC(=O)c1cc(O)c(O)c(O)c1)c1cc(O)c(O)c(O)c1 (stereo partly shown): -92%
Cc1cn([C@H]2C[C@H](N=[N+]=[N-])[C@@H](CO)O2)c(=O)[nH]c1=O: -11%
CC#CCn1c(N2CCC[C@@H](N)C2)nc2c1c(=O)n(Cc1nc(C)c3ccccc3n1)c(=O)n2C: -1%
C[C@]12CCCN1CC1=NNC(=O)c3cc(F)cc4[nH]c2c1c34: -4%
CC(C)C[C@H](NC(=O)[C@@H](COC(C)(C)C)NC(=O)[C@H](Cc1ccc(O)cc1)NC(=O)[C@H](CO)NC(=O)[C@H](Cc1c[nH]c2ccccc12)NC(=O)[C@H](Cc1cnc[nH]1)NC(=O)[C@@H]1CCC(=O)N1)C(=O)N[C@@H](CCCN=C(N)N)C(=O)N1CCC[C@H]1C(=O)NNC(N)=O: -13%
